Assay results pooled from the literature.
Lines come from different studies, so protocols differ. Several values in a cell are separate wells, animals, samples, runs or records. Numbers after ± are the reported error. ≈ marks a conversion by molar mass, not a printed value.
UniProt P08684, sequence (whole entry, looked up): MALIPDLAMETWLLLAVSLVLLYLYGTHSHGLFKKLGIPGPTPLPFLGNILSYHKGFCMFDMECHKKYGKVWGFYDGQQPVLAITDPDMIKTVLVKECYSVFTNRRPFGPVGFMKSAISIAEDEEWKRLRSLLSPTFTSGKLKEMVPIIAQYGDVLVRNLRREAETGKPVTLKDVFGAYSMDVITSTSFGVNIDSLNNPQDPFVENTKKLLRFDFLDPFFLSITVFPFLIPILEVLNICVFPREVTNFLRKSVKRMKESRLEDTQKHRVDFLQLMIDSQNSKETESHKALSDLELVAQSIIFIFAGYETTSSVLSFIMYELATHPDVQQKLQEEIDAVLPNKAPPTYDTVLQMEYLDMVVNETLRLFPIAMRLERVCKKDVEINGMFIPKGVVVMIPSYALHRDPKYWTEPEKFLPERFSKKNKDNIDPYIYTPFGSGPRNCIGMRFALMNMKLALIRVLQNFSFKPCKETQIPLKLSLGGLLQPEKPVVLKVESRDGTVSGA

| SMILES | target or system | assay | system | setting | scale | quantity | result |
| --- | --- | --- | --- | --- | --- | --- | --- |
| O=C1CC[C@@]2(O)[C@H]3Cc4ccc(O)c5c4[C@@]2(CCN3CC2CCC2)[C@H]1O5 | – | – | octanol/phosphate buffer | 1 h, pH 7.45, ionic strength 0.15 M | – | logD | 1.29 |
| Cc1ccc(OCCN(C)C)cc1C(=O)N[C@H](C)c1cc(-c2cnn(C(F)F)c2)nc2ccccc12 | Vero E6 | – | – | 250 µM | – | viability | -0.769% and -6.73% |
| Oc1ccc2c3c1OC1C(O)C=CC4C(C2)N(CC2CCC2)CCC341 (stereo not drawn) | – | – | octanol/buffer | 1 h, pH 7.4 | – | logD | 1.32 |
| CCn1ccc(-c2cc([C@@H](C)NC(=O)c3cc(OC[C@H]4CCCN4C)ccc3C)c3ccccc3n2)n1 | Vero E6 | – | – | 500 µM | – | viability | 2.34% and 0.469% and 0.781% |
| COc1cc2c(cc1NC(=O)c1cncn1C)C[C@H]1[C@H]3CCCC[C@@]23CCN1C | – | – | C57BL/6 mice, plasma | oral, 50 µg/g, 120 min | – | plasma concentration | 6980 ng/mL and 5750 ng/mL and 7060 ng/mL and 4630 ng/mL |
| CNC(=O)C1CCCN(C(=O)C2CC3CCC2N3C(=O)[C@@H]2C[C@@H](O)CN2C(=O)NCc2cccc(Cl)c2F)C1 (mixture of isomers) | CYP3A4 (human) | inhibitor, time-dependent inhibition | – | 0.617 µM, preincubated with NADPH, together with: midazolam substrate | relative to: negative control | remaining activity | 97.8% |
| CNC(=O)C[C@H](Cc1ccccc1)NC(=O)[C@@H](Cc1ccc(Cl)cc1Cl)NC(=O)[C@H](N)Cc1ccccc1C#N | Huh-7-ACE2 | CellTiter-Glo | – | 1.562 µM, 48 h, unit not given | relative to: DMSO | viability | 0.799 and 1.03 and 0.913 |
| Cc1nc2cccc(OCC(C)(C)C(=O)NC(C)C)c2c(N)c1C(=O)[O-].[Na+] | Salmonella typhimurium | Ames plate incorporation | TA1535 | 0.80 mg/plate, together with: with rat liver S9 | – | revertant colonies | 14 ± 4 colonies/plate |
| CC(=O)NCCCC[C@@H]1NC(=O)[C@H](Cc2c[nH]c3c(C)cccc23)NC(=O)[C@H]([C@@H](C)O)NC(=O)[C@H](CC(N)=O)NC(=O)[C@@H](NC(C)=O)C(C)(C)SSC(C)(C)[C@@H](C(=O)N[C@@H](Cc2ccc(OCCN)cc2)C(=O)N[C@@H](Cc2ccc3ccccc3c2)C(=O)NC2(C(=O)N[C@@H](CCC(=O)O)C(=O)N[C@@H](CC(N)=O)C(=O)N[C@@H](Cc3cccnc3)C(=O)N(C)CC(N)=O)CCOCC2)NC1=O | Albumin (ALB, Homo sapiens, UniProt P02768) | equilibrium dialysis | purified human albumin | 1 µM | – | unbound fraction | 64.1 ± 2.1 % unbound |
| [2H]C([2H])([18F])[C@]([2H])(N)C(=O)O | U-87 MG tumour model | – | host not given, bone | 110 min, tumour-bearing | – | tracer uptake | 10.8 %ID/g |
| CCCCCC1=C(NCC)C(=O)C(C/C=C(\C)CCC=C(C)C)=C(O)C1=O | human peripheral lymphocytes | – | – | 30 µg/mL, 3 h, without S9, harvest 27 h | – | cytostasis | 32% |
| COc1ccc2c3c1O[C@H]1[C@@H](O)C=C[C@H]4[C@@H](C2)N(CCc2ccccc2)CC[C@@]341 | – | – | octanol/phosphate buffer | 1 h, pH 6.89, ionic strength 0.15 M | – | logD | 2.03 |
| Cc1ccc(NC2(C)CN(C)C2)cc1C(=O)N[C@H](C)c1cc(-c2cnn(C)c2)nc2ccccc12 | Vero E6 | – | – | 15.62 µM | – | viability | 83.6% and 79.6% and 91.3% |
| CC[C@H](C)[C@H](NC(=O)[C@H](CCCCN)NC(=O)[C@H](CCCCN)NC(=O)[C@H](Cc1ccccc1)NC(=O)[C@H](Cc1ccccc1)NC(=O)[C@H](CCCCN)NC(=O)[C@H](CCCCN)NC(=O)[C@H](Cc1ccccc1)NC(=O)[C@H](CCCNC(=N)N)NC(=O)[C@@H](N)CCCCN)C(=O)N[C@@H](CCCCN)C(=O)N[C@@H](CCCCN)C(=O)N[C@@H](CO)C(=O)N[C@H](C(=O)N[C@@H](CCCCN)C(=O)N[C@@H](CCCCN)C(=O)N[C@@H](CCCNC(=N)N)C(=O)N[C@H](C(=O)N[C@@H](CCCCN)C(=O)N[C@@H](CCCCN)C(=O)N[C@@H](CC(C)C)C(=O)N[C@@H](Cc1ccccc1)C(=O)N[C@@H](CCCCN)C(=O)N[C@@H](CCCCN)C(=O)N1CCC[C@H]1C(=O)N[C@@H](CCCNC(=N)N)C(=O)N[C@H](C(=O)N[C@H](C(=O)N1CCC[C@H]1C(=O)N[C@H](C(=O)N[C@@H](CO)C(=O)N[C@H](C(=O)N1CCC[C@H]1C(=O)N[C@@H](Cc1ccccc1)C(=O)O)[C@@H](C)CC)[C@@H](C)CC)[C@@H](C)CC)C(C)C)C(C)C)C(C)C | Pseudomonas aeruginosa | – | P1 | after heating at 90 °C | – | MIC | 4 µg/mL (≈ 0.948 µM) |
| Cc1ccc(N(C)C2CN(C)C2)cc1C(=O)N[C@H](C)c1cc(-c2cnn(C)c2)nc2ccccc12 | Vero E6 | – | – | 250 µM | – | viability | 0.933% |
| Cc1cc(-c2ccc3ccccc3c2)nnc1NCCN1CCN(C)CC1 | Cytochrome P450 3A4 (CYP3A4, Homo sapiens, UniProt P08684) | substrate | recombinant enzyme | 100 nM, 0.5 h | – | remaining compound | 92% |
| COc1ccc2c3c1O[C@H]1[C@H](O)C=C[C@H]4[C@@H](C2)N(C)CC[C@@]341 | – | PAMPA-BBB | porcine brain lipid | 500 µM, 4 h, pH 7.4, 1% DMSO | – | Papp | 22.6 ×10⁻⁶ cm/s |

| SMILES | target or system | assay | system | setting | scale | quantity | result |
| --- | --- | --- | --- | --- | --- | --- | --- |
| NC[C@]1(CC(=O)O)CC[C@@H]([18F])CC1 | – | PET, one-tissue model | rhesus monkey, occipital gyrus | intravenous | – | K1 | 0.0021 mL/min/cm3 |
| Cc1ccc(N2CCC(N(C)C)CC2)cc1C(=O)N[C@H](C)c1cc(-c2cnn(C)c2)nc2ccccc12 | Vero E6 | – | – | 500 µM | – | viability | 1.2% and 0.685% and 1.37% |
| O=C1CC[C@H]2[C@H]3Cc4ccc(O)c5c4[C@@]2(CCN3CCc2ccccc2)[C@H]1O5 | – | – | octanol/phosphate buffer | 1 h, pH 7.38, ionic strength 0.15 M | – | logD | 1.67 |
| CN(C)CCCNC(=O)[C@@H]1NC(=O)[C@@H]2Cc3ccc(cc3)Oc3cc4cc(c3O)-c3ccc5c(c[nH]c5c3)C[C@@H](NC(=O)C(NC(=O)CCCCCN)c3ccc(O)cc3)C(=O)N[C@H](c3ccc(O)cc3)C(=O)N[C@H]4C(=O)N[C@@H](C(=O)N2C)c2ccc(cc2)Oc2cc1ccc2O (stereo partly drawn) | human red blood cells | – | – | 512 µg/mL, 1 h, 37 °C, 1% DMSO | – | hemolysis | 0% |
| Cc1ccc(OC[C@@H]2CCCN2C)cc1C(=O)N[C@H](C)c1cc(-c2cnn(C)c2)nc2ccccc12 | Vero E6 | – | – | 500 µM | – | viability | 0.565% and 3.01% |
| Nc1c2c(nc3sc4c(c13)CCCCC4)CCCC2 | Ba/F3 | cytotoxicity | – | 3 days | – | IC50 | > 1.25 µM |
| O=C1NC2(CC2)COc2ncc(F)cc2[C@H]2COCCN2c2ccn3ncc1c3n2 | – | – | Sprague-Dawley rat, female, uterus | oral, 20 mg/kg/day, 4 weeks dosing, end of recovery | – | organ-to-body weight ratio | 0.229 ± 0.045% |
| CC(C)N1CN(C2c3ccccc3CSc3ccccc32)n2cc(C(=O)O)c(=O)c(O)c2C1=O (stereo not drawn) | – | – | dog cells | – | – | CC50 | 7 µM |
| CCn1ccc(-c2cc([C@@H](C)NC(=O)c3cc(OCCN(C)C)ccc3C)c3ccccc3n2)n1 | Vero E6 | – | – | 500 µM | – | viability | 0.633% and 3.16% and 0.791% |
| CC1(F)CN(C(=O)Cn2c(=O)c(C(=O)NCc3ccc(Cl)cc3)cc3nc(N4CCN(CCN)C4=O)cnc32)C1 | Epstein-Barr virus | qPCR | – | retest 2 | relative to: CC50 over EC50 | selectivity index | 77.2 |
| Nc1nc(Nc2ccc(Cl)cc2)nn1S(=O)(=O)c1ccc2ccccc2c1 | Syrian hamster cells | – | – | – | – | CC50 | 7 µM |
| Cc1ccn2c(-c3csc(Nc4ccccn4)n3)c(C)nc2c1 | HEp-2 | cell growth or viability, ATP luminescence | – | 72 h | – | IC50 | > 10 µM |
| COc1ccc2c3c1O[C@H]1[C@H](O)CC[C@@]4(O)[C@@H](C2)N(C)CC[C@]314 | – | pH-potentiometric titration | – | – | relative to: O-methyl derivative | Δlog K, isomerization effect | 0.07 log units |
| CCn1ccc(-c2cc([C@@H](C)NC(=O)c3cc(N4CCN(C)CC4)ccc3C)c3ccccc3n2)n1 | Vero E6 | – | – | 7.812 µM | – | viability | 91.5% and 88.5% and 91.9% |
| COc1ccc2c3c1O[C@H]1[C@@H](O)CC[C@H]4[C@@H](C2)N(CCc2ccccc2)CC[C@@]341 | – | – | octanol/phosphate buffer | 1 h, pH 6.89, ionic strength 0.15 M | – | logD | 1.7 |
| CC(C)N1CN(C2c3ccccc3CCc3ccccc32)n2cc(C(=O)O)c(=O)c(O)c2C1=O | – | – | hamster cells | – | – | CC50 | 4.3 µM |

Some of these lines once more:
| SMILES | target or system | assay | system | setting | scale | quantity | result |
| --- | --- | --- | --- | --- | --- | --- | --- |
| Cc1ccn2c(-c3csc(Nc4ccccn4)n3)c(C)nc2c1 | HEp-2 | cell growth or viability, ATP luminescence | – | 72 h | – | IC50 | > 10 µM |
| Cc1nc2cccc(OCC(C)(C)C(=O)NC(C)C)c2c(N)c1C(=O)[O-].[Na+] | Salmonella typhimurium | Ames plate incorporation | TA1535 | 0.80 mg/plate, together with: with rat liver S9 | – | revertant colonies | 14 ± 4 colonies/plate |
